Published values from different studies.
Lines come from different studies, so protocols differ. Values joined by “and” are separate records of one study, mostly repeats; a detail may differ. ± marks the error that the study gave.
DRD1: D(1A) dopamine receptor (DRD1, Homo sapiens, UniProt P21728)
Chain of UniProt P21728 (whole entry, looked up): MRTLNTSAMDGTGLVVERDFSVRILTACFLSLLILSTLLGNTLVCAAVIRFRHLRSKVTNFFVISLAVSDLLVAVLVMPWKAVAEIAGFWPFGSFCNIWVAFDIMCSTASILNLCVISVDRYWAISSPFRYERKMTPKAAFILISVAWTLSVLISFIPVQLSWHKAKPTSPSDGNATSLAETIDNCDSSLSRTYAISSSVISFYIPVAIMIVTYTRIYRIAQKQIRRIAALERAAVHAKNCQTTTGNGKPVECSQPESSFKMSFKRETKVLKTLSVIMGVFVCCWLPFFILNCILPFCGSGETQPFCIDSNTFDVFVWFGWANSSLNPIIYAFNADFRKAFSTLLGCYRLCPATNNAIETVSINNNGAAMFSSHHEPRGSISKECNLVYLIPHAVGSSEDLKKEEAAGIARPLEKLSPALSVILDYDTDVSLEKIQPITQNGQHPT
Palmitoyl-protein thioesterase 1: Palmitoyl-protein thioesterase 1 (Homo sapiens, UniProt P50897)
Chain of UniProt P50897 (whole entry, looked up): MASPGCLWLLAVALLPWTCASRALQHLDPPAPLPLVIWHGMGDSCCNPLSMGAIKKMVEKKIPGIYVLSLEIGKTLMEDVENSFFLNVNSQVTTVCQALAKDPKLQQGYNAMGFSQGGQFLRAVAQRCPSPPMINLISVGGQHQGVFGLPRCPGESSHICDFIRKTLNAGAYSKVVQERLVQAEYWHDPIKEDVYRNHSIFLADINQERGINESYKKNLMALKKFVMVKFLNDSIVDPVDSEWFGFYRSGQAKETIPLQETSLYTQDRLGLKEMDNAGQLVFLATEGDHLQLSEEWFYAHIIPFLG
HTR1E: 5-hydroxytryptamine receptor 1E (HTR1E, Homo sapiens, UniProt P28566)
Chain of UniProt P28566 (whole entry, looked up): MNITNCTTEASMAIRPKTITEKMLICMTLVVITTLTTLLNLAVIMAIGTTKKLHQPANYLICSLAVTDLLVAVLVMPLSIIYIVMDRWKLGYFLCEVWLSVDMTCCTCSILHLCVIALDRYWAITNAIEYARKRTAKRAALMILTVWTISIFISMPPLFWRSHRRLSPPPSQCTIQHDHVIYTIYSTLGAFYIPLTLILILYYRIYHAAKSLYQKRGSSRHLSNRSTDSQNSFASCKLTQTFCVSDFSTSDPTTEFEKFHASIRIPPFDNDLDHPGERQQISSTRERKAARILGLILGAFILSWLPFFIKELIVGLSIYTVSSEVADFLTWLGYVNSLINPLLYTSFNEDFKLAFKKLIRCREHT
Adhesin FmlH lectin domain: Adhesin FmlH, lectin domain (Escherichia coli, UniProt Q1RBS0)
Luciferin 4-monooxygenase: Luciferin 4-monooxygenase (Photinus pyralis, UniProt P08659)
Chain of UniProt P08659 (whole entry, looked up): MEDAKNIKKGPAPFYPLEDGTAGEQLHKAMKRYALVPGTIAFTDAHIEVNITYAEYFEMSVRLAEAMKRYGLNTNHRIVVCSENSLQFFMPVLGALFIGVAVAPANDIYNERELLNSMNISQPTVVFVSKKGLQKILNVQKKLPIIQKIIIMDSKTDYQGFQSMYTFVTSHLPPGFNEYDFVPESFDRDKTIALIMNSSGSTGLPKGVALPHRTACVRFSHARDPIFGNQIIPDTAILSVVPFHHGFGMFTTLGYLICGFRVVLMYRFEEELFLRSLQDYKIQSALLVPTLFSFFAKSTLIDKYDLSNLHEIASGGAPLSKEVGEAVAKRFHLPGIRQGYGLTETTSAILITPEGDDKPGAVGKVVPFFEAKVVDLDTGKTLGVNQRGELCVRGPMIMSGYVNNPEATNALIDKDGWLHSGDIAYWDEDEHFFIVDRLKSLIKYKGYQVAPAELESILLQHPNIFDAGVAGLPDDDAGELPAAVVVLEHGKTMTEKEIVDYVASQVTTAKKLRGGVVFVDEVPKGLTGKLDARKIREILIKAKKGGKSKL
ATP-sensitive inward rectifier potassium channel 10: ATP-sensitive inward rectifier potassium channel 10 (Homo sapiens, UniProt P78508)
Chain of UniProt P78508 (whole entry, looked up): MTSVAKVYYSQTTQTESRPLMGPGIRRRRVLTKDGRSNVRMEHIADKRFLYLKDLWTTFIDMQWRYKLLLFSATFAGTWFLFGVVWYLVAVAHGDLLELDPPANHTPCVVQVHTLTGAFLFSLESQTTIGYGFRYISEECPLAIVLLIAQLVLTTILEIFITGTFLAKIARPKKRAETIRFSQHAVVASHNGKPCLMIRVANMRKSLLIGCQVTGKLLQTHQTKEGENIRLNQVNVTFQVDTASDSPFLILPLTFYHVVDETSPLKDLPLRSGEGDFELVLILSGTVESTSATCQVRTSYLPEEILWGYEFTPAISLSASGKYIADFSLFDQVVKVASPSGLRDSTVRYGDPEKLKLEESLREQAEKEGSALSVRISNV
Chain of UniProt Q13370 (whole entry, looked up): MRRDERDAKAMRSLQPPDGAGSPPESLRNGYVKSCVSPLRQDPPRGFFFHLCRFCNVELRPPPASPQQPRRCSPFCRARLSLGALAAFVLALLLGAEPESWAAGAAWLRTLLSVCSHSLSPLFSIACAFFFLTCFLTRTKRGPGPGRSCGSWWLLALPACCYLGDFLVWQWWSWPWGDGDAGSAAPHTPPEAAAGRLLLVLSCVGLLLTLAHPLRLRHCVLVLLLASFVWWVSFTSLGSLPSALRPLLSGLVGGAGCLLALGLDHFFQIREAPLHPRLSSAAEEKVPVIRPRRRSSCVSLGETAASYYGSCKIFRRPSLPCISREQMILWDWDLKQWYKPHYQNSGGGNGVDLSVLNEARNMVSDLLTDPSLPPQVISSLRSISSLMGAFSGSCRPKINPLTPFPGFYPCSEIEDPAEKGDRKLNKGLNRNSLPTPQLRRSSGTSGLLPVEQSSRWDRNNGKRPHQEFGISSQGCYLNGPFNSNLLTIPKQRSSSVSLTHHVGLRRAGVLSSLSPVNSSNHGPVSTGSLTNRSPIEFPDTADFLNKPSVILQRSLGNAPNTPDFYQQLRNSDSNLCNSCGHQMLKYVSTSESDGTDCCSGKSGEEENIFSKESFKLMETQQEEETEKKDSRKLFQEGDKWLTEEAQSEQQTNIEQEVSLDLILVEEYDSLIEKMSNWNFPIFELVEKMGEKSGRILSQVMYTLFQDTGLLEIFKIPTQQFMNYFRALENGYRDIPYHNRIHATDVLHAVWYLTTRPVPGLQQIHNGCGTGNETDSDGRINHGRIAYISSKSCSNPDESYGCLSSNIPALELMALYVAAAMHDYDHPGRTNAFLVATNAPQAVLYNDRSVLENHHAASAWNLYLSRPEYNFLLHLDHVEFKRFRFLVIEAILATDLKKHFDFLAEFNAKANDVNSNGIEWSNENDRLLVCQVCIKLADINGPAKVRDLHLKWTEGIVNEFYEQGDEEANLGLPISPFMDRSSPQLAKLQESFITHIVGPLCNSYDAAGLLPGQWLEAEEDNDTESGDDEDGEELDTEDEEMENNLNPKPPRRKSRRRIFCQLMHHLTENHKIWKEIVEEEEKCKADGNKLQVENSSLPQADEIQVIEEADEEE
Chain of UniProt P07237 (whole entry, looked up): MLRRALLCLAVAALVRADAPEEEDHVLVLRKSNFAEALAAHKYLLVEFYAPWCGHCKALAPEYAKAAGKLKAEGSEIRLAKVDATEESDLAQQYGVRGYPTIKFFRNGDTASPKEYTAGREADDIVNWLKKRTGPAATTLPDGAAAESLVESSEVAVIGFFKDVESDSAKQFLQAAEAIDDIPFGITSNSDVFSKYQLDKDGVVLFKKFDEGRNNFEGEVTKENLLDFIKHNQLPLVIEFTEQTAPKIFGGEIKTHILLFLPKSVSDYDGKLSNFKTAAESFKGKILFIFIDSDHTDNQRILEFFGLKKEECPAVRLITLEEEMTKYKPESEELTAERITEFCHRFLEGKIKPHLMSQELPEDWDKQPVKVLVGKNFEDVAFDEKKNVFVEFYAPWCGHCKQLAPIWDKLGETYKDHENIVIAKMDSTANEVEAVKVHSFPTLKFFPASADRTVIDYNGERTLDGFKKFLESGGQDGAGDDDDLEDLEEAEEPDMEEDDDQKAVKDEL
Chain of UniProt P05164 (whole entry, looked up): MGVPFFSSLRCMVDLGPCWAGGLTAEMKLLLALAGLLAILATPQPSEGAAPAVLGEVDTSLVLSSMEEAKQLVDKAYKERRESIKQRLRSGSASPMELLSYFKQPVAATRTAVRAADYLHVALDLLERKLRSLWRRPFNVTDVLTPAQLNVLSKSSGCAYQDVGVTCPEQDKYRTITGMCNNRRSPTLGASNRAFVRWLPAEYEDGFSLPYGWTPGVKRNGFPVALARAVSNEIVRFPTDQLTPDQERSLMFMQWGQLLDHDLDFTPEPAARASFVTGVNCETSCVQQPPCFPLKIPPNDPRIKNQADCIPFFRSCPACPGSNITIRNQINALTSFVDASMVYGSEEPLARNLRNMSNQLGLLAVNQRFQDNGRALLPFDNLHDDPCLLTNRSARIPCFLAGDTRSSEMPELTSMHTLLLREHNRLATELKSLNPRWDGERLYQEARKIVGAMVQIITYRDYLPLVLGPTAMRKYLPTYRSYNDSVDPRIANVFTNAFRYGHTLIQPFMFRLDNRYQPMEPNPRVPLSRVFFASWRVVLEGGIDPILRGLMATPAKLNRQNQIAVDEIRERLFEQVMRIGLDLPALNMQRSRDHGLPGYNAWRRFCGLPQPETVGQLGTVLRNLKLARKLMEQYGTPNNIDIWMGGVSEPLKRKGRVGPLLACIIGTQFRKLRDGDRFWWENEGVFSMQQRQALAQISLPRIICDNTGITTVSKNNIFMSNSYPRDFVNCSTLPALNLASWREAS
Chain of UniProt P04070 (whole entry, looked up): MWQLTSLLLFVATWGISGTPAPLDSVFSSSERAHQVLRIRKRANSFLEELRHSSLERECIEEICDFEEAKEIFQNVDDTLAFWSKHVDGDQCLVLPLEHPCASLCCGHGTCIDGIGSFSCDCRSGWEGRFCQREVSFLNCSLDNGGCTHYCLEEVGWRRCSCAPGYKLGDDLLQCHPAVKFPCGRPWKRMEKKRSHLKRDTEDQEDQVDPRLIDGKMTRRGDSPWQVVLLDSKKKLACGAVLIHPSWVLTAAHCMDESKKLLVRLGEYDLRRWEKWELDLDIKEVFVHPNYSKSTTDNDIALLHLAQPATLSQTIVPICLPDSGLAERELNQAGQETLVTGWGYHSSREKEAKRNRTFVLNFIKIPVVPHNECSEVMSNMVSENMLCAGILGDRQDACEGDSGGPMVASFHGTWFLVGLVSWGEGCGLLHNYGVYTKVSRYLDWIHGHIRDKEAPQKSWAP

For `CN1CCc2cc(Cl)c(O)cc2[C@@H](c2ccccc2)C1`, the inhibition was 91% (DRD1; cAMP level, antagonist, TR-FRET; U2OS expressing human D1R; concentration not given, together with: dopamine 10 nM).
`Cc1ncc([N+](=O)[O-])n1CC(O)CCl` (stereo not drawn) gave an inhibition of 78% (Palmitoyl-protein thioesterase 1; Spectrum Collection screen; concentration not given, together with: substrate 20 µM).
For `CCc1oc2ccccc2c1C(=O)c1cc(Br)c(O)c(Br)c1`, the inhibition was 63.8% (Solute carrier family 22 member 12 (SLC22A12, Homo sapiens, UniProt Q96S37, S35A); uric acid uptake; HEK293T transfected with SLC22A12 S35A; 0.5 µM, 10 min, 37 °C, mean, together with: [14C]urate 200 µM).
`O=C(OC[C@H]1O[C@@H](OC(=O)c2cc(O)c(O)c(O)c2)[C@H](OC(=O)c2cc(O)c(O)c(O)c2)[C@@H](OC(=O)c2cc(O)c(O)c(O)c2)[C@@H]1OC(=O)c1cc(O)c(O)c(O)c1)c1cc(O)c(O)c(O)c1`: inhibition “inhibited” (Protein disulfide-isomerase, a' domain (P4HB, Homo sapiens, UniProt P07237); di-eosin-GSSG reductase activity; isolated a' domain; 20 µM).
The inhibition of `COc1ccc2c(c1)C(=O)N(CCCN1CCN(c3ccccc3OC)CC1)C2` is reported as 6.8% (HTR1E; radioligand binding; concentration not given, together with: [3H]5-HT).
Under inhibition, `CC(C(=O)O)c1cccc(Oc2ccccc2)c1` (stereo not drawn) is recorded as “no inhibition” (Prostaglandin G/H synthase 1 (PTGS1, Ovis aries, UniProt P05979); biochemical; 100 µM).
For `CC(=O)N[C@H]1[C@@H](Oc2ccc([N+](=O)[O-])cc2)O[C@H](CO)[C@H](O)[C@@H]1O[C@@H]1O[C@H](CO)[C@H](O)[C@H](O)[C@H]1O`, the inhibition was 15.3 ± 3.1% (Adhesin FmlH lectin domain; binding to desialylated mucin, ELISA competition; UPEC UTI89; 100 µM).
The inhibition of `Cc1ncc([N+](=O)[O-])n1CCO` is reported as 65.1% (Palmitoyl-protein thioesterase 1; Spectrum Collection screen; concentration not given, together with: substrate 20 µM).
With `CCN(O)N=Nc1ccc(S(=O)(=O)Nc2onc(C)c2C)cc1` the inhibition was 37.5 ± 0.38% (α-glucosidase, rat intestine; enzyme activity; 180 µg/mL, together with: 4-nitrophenyl α-D-glucopyranoside).
With `Cc1nc(C2CCN(C(=O)c3cccc(-c4ncn[nH]4)c3)CC2)cc(=O)[nH]1` the inhibition was 7.46% (Luciferin 4-monooxygenase; luciferase luminescence, inhibitor; cell-free; 50 µM, counter-screen).
For `O=C(CN1CCO[C@@H](COc2cccnc2)C1)N1CCc2ccccc21`, the inhibition was 9.8% (DRD1; radioligand binding; concentration not given, together with: [3H]SCH23390).
`Cc1noc(NS(=O)(=O)c2ccc(N=NN(C)O)cc2)c1C` gave an inhibition of 12.25 ± 0.013% (α-glucosidase, rat intestine; enzyme activity; 60 µg/mL, together with: 4-nitrophenyl α-D-glucopyranoside).
With `CCC1=NOC(Cn2ncc(N3CCc4ccccc4C3)cc2=O)C1` (stereo not drawn) the inhibition was 91.3% (Luciferin 4-monooxygenase; luciferase luminescence, inhibitor; cell-free; 50 µM, counter-screen).
The inhibition of `COc1cc(-c2cc(C(C)=O)n3ccccc23)c(OC)cc1Cn1ccnc1` is reported as 0.12% (Peregrin (BRPF1, Homo sapiens, UniProt P55201); 1 µM).
The inhibition of `CCN1/C(=C/C(C)=O)Sc2ccc(F)cc21` is reported as 0.62% (Voltage-dependent N-type calcium channel subunit alpha-1B (Cacna1b, Rattus norvegicus, UniProt Q02294); 10 µM).
For `Cc1cc(NS(=O)(=O)c2ccc(N=NN(O)c3ccccc3)cc2)no1`, the inhibition was 47.5 ± 1.54% (α-glucosidase, rat intestine; enzyme activity; 240 µg/mL, together with: 4-nitrophenyl α-D-glucopyranoside).
`O=C1c2ccccc2CCN1CCCCN1CCN(c2ccccn2)CC1` gave an inhibition of -6.5% (HTR1E; radioligand binding; concentration not given, together with: [3H]5-HT).
`O=S(=O)(Nc1nccs1)c1ccc(N=NN(O)c2ccccc2)cc1` gave an inhibition of 42.5 ± 0.01% (α-glucosidase, rat intestine; enzyme activity; 240 µg/mL, together with: 4-nitrophenyl α-D-glucopyranoside).
For `CC[C@@H]1[C@H](F)C(=O)N[C@@H]1COc1nccc2cc(C(N)=O)c(OC)cc12`, the inhibition was -3% (Serine/threonine-protein kinase OSR1 (OXSR1, Homo sapiens, UniProt O95747); ATP-site probe binding, ActivX profiling, refers to: OSR1; THP-1 cell lysate; 0.2 mM, Lys2 site).
With `Cc1noc(NS(=O)(=O)c2ccc(N=NN(O)c3ccccc3)cc2)c1C` the inhibition was 5 ± 0.72% (α-glucosidase, rat intestine; enzyme activity; 20 µg/mL, together with: 4-nitrophenyl α-D-glucopyranoside).
With `CNc1cccc2cc(C(=O)Nc3ccc(C(=O)O)cc3)c(=O)[nH]c12` the inhibition was 8.5% (AMPK; kinase activity, inhibitor; 10 µM).
With `Cc1nn(-c2nc3ccccc3s2)c(O)c1C(c1ccccc1C(=O)O)c1c(C)nn(-c2nc3ccccc3s2)c1O` the inhibition was 91.7% (Cyclic GMP-AMP synthase, catalytic domain; with DNA (CGAS, Homo sapiens, UniProt Q8N884); cGAS phase separation, inhibitor; 2.5 µM).
The inhibition of `O=C(O)C1=CC(=C(c2ccc(O)c(C(=O)O)c2)c2ccc(O)c(C(=O)O)c2)C=CC1=O` is reported as 64.4% (Luciferin 4-monooxygenase; luciferase luminescence, inhibitor; cell-free; 50 µM, counter-screen).
With `CN(C)c1ccc2nc3ccc(=[N+](C)C)cc-3sc2c1` the inhibition was 60.9% (Palmitoyl-protein thioesterase 1; Spectrum Collection screen; concentration not given, together with: substrate 20 µM).
With `Cc1ccn(CCn2ncc(N(C)C)cc2=O)n1` the inhibition was 20.5% (Luciferin 4-monooxygenase; luciferase luminescence, inhibitor; cell-free; 50 µM, counter-screen).
With `CC(C)c1noc2ncc(C(=O)c3ccccc3O)cc12` the inhibition was 4.72% (ATP-sensitive inward rectifier potassium channel 10; ion current, whole-cell patch-clamp; 10 µM).
`Clc1cccc(OC[C@@H]2CN(CCN3CCc4ccccc43)CCO2)c1` gave an inhibition of 72.5% (DRD1; radioligand binding; concentration not given, together with: [3H]SCH23390).
`COc1ccc(S(=O)(=O)N(CC(=O)NO)CC(C)C)cc1` gave an inhibition of 89% (72 kDa type IV collagenase (MMP2, Homo sapiens, UniProt P08253); fluorometric; 10 ng/mL).
`OC[C@H]1O[C@@H](Oc2ccccc2)[C@H](O)[C@@H](O)[C@H]1O` gave an inhibition of 76.9 ± 0.4% (Adhesin FmlH lectin domain; binding to desialylated mucin, ELISA competition; UPEC UTI89; 100 µM).
For `CN(C(=O)n1cnc(-c2ccc[n+]([O-])c2)c1)C1CCCCC1`, the inhibition was 20.6% (B2 bradykinin receptor (BDKRB2, Homo sapiens, UniProt P30411); 10 µM).
`CN1CCN(c2cc(-c3ccncc3)c(-c3ccc4ccccc4c3)nn2)CC1` gave an inhibition of 3.9% (Prostaglandin D2 receptor (PTGDR, Homo sapiens, UniProt Q13258); antagonist, FLIPR; 10 µM).
The inhibition of `CCCCCCCC/C=C\CCCCCCCC(=O)O.NCCO` is reported as 64.3% (Palmitoyl-protein thioesterase 1; Spectrum Collection screen; concentration not given, together with: substrate 20 µM).
For `COc1ccc(F)cc1C(=O)NCc1ccc(-c2nn([C@@H](C)C(F)(F)F)c(N)c2C(N)=O)cc1`, the inhibition was 26.6% (STE20-related kinase adapter protein beta (Homo sapiens, UniProt Q9C0K7); target engagement, competitive chemoproteomics; human PBMCs; 10 µM).
With `O=C(CN1CCO[C@@H](COc2ccccn2)C1)N1CCc2ccccc21` the inhibition was 47.9% (DRD1; radioligand binding; concentration not given, together with: [3H]SCH23390).
`O=C(NO)c1ccc(CN2CCCCc3ccccc32)c(F)c1` has an inhibition of -21.8% (Sodium-dependent noradrenaline transporter (SLC6A2, Homo sapiens, UniProt P23975); radioligand binding, radioligand displacement; 10 µM, mean of replicates).
The inhibition of `[H]/N=C(/N)c1ccc(NCc2nc3cc(C(=O)N(CCC(=O)O)c4ccccn4)ccc3n2C)cc1` is reported as over 90% (Vitamin K-dependent protein C (PROC, Homo sapiens, UniProt P04070); concentration not given).
For `CCCCC(CC)COC(=O)C(C#N)=C(c1ccccc1)c1ccccc1` (stereo not drawn), the inhibition was 65.9% (Palmitoyl-protein thioesterase 1; Spectrum Collection screen; concentration not given, together with: substrate 20 µM).
`CCCN(O)N=Nc1ccc(S(=O)(=O)Nc2onc(C)c2C)cc1` has an inhibition of 27.5 ± 0.09% (α-glucosidase, rat intestine; enzyme activity; 120 µg/mL, together with: 4-nitrophenyl α-D-glucopyranoside).
With `COc1cc2c(cc1OC)C(=O)N(CCCCN1CCN(c3ccccc3OC)CC1)C2` the inhibition was 91.3% (DRD1; radioligand binding; concentration not given, together with: [3H]SCH23390).
`CCCCCCCC/C=C1/C=C(C(F)(F)F)c2cc(OC)c(OC)cc21`: inhibition “inhibited” (Protein disulfide-isomerase (P4HB, Homo sapiens, UniProt P07237); insulin reduction, inhibitor; concentration not given, 37 °C, low micromolar preincubation).
For `CC1CCN(c2nccnc2Oc2ccc(C(=O)NCCC3=CCCCC3)cc2)CC1`, the inhibition was 1.41% (Luciferin 4-monooxygenase; luciferase luminescence, inhibitor; cell-free; 50 µM, counter-screen).
`NC/C(=C\F)COc1cccc(Cn2c(=S)[nH]c(=O)c3[nH]cnc32)c1` has an inhibition of 99.1% (Myeloperoxidase (MPO, Homo sapiens, UniProt P05164); enzyme activity; 1 µM).
The inhibition of `O=C(Nc1cccc2c(=O)cc(-c3nnn[nH]3)oc12)c1ccc(OCCCCc2ccccc2)cc1` is reported as 13.7% and 18.5% and 30.8% and 25% and 31.9% (Volume-regulated anion channel subunit LRRC8C, part LRRC8A IL1 chimera (LRRC8C, Homo sapiens, UniProt Q8TDW0, E6A); ion current, inhibitor, whole-cell patch clamp; HCT LRRC8-/- cells; 0.3 µM, -100 mV).
With `CCN1CCN(C2(C(=O)NCc3cnc(C)cn3)Cc3ccccc3C2)CC1` the inhibition was 5.83% (Luciferin 4-monooxygenase; luciferase luminescence, inhibitor; cell-free; 50 µM, counter-screen).
`Cc1ccc(C(=O)Nc2ccc3ccccc3c2)o1` has an inhibition of 2.74% and 0.82% and 0.2% and 2.8% and 1.36% (ATP-sensitive inward rectifier potassium channel 10; ion current, inhibitor, whole-cell patch clamp; 10 µM).
`COc1cc2c(cc1OC)C(=O)C(CC1CCN(Cc3ccccc3)CC1)C2` (stereo not drawn) gave an inhibition of 0.4% (HTR1E; radioligand binding; concentration not given, together with: [3H]5-HT).
The inhibition of `Cc1ccc2nc(O)c(CCC(=O)N3CCSCC3)cc2c1` is reported as 75.1% (Luciferin 4-monooxygenase; luciferase luminescence, inhibitor; cell-free; 50 µM, counter-screen).
`Cc1ccc(N(O)N=Nc2ccc(S(=O)(=O)Nc3cc(C)on3)cc2)cc1` gave an inhibition of 30 ± 0.791% (α-glucosidase, rat intestine; enzyme activity; 120 µg/mL, together with: 4-nitrophenyl α-D-glucopyranoside).
`CCc1nn(C)c2nc(-c3ccc(C(=O)O)cc3)nc(NCc3ccc(F)cc3)c12` has an inhibition of -0.4% (cGMP-inhibited 3',5'-cyclic phosphodiesterase 3B (PDE3B, Homo sapiens, UniProt Q13370); enzyme activity; 10 µM, together with: [3H]cAMP).
For `CCCN(O)N=Nc1ccc(S(=O)(=O)Nc2cc(C)on2)cc1`, the inhibition was 12.5 ± 1.05% (α-glucosidase, rat intestine; enzyme activity; 20 µg/mL, together with: 4-nitrophenyl α-D-glucopyranoside).
The inhibition of `COc1ccccc1N1CCN(CCCCN2CCc3ccccc3C2=O)CC1` is reported as 74% (DRD1; radioligand binding; concentration not given, together with: [3H]SCH23390).

For quick reference, copied from above:
For `CCc1oc2ccccc2c1C(=O)c1cc(Br)c(O)c(Br)c1`, the inhibition was 63.8% (Solute carrier family 22 member 12 (SLC22A12, Homo sapiens, UniProt Q96S37, S35A); uric acid uptake; HEK293T transfected with SLC22A12 S35A; 0.5 µM, 10 min, 37 °C, mean, together with: [14C]urate 200 µM).
`O=C(OC[C@H]1O[C@@H](OC(=O)c2cc(O)c(O)c(O)c2)[C@H](OC(=O)c2cc(O)c(O)c(O)c2)[C@@H](OC(=O)c2cc(O)c(O)c(O)c2)[C@@H]1OC(=O)c1cc(O)c(O)c(O)c1)c1cc(O)c(O)c(O)c1`: inhibition “inhibited” (Protein disulfide-isomerase, a' domain (P4HB, Homo sapiens, UniProt P07237); di-eosin-GSSG reductase activity; isolated a' domain; 20 µM).
The inhibition of `COc1ccc2c(c1)C(=O)N(CCCN1CCN(c3ccccc3OC)CC1)C2` is reported as 6.8% (HTR1E; radioligand binding; concentration not given, together with: [3H]5-HT).
Under inhibition, `CC(C(=O)O)c1cccc(Oc2ccccc2)c1` (stereo not drawn) is recorded as “no inhibition” (Prostaglandin G/H synthase 1 (PTGS1, Ovis aries, UniProt P05979); biochemical; 100 µM).
For `CC(=O)N[C@H]1[C@@H](Oc2ccc([N+](=O)[O-])cc2)O[C@H](CO)[C@H](O)[C@@H]1O[C@@H]1O[C@H](CO)[C@H](O)[C@H](O)[C@H]1O`, the inhibition was 15.3 ± 3.1% (Adhesin FmlH lectin domain; binding to desialylated mucin, ELISA competition; UPEC UTI89; 100 µM).
